Assay results pooled from the literature.
A part holds a random share of what one study measured.
Chain of UniProt Q15208 (whole entry, looked up): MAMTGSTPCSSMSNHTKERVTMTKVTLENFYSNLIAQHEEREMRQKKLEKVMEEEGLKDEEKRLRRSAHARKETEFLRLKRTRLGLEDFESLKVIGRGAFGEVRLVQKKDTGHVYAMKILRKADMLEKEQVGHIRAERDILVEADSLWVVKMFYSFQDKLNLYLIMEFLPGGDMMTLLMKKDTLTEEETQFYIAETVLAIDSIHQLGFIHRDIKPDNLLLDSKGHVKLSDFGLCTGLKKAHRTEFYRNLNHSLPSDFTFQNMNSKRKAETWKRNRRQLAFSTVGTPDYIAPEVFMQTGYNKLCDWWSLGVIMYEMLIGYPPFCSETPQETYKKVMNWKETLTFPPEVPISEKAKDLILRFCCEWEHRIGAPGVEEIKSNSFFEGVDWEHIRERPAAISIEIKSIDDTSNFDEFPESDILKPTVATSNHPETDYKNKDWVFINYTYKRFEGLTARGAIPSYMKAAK
Chain of UniProt Q96Q40 (whole entry, looked up): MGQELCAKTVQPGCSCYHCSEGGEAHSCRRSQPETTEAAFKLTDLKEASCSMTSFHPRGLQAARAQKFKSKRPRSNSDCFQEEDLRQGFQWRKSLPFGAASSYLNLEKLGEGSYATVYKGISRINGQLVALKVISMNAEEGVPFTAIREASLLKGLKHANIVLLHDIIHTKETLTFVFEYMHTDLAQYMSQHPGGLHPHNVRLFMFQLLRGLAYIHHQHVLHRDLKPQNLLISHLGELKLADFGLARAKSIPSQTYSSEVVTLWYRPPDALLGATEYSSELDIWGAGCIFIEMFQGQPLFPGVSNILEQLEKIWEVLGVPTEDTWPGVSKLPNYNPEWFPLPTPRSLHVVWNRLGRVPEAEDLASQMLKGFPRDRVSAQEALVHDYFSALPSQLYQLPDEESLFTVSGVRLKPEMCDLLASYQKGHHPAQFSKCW
Chain of UniProt P35916 (whole entry, looked up): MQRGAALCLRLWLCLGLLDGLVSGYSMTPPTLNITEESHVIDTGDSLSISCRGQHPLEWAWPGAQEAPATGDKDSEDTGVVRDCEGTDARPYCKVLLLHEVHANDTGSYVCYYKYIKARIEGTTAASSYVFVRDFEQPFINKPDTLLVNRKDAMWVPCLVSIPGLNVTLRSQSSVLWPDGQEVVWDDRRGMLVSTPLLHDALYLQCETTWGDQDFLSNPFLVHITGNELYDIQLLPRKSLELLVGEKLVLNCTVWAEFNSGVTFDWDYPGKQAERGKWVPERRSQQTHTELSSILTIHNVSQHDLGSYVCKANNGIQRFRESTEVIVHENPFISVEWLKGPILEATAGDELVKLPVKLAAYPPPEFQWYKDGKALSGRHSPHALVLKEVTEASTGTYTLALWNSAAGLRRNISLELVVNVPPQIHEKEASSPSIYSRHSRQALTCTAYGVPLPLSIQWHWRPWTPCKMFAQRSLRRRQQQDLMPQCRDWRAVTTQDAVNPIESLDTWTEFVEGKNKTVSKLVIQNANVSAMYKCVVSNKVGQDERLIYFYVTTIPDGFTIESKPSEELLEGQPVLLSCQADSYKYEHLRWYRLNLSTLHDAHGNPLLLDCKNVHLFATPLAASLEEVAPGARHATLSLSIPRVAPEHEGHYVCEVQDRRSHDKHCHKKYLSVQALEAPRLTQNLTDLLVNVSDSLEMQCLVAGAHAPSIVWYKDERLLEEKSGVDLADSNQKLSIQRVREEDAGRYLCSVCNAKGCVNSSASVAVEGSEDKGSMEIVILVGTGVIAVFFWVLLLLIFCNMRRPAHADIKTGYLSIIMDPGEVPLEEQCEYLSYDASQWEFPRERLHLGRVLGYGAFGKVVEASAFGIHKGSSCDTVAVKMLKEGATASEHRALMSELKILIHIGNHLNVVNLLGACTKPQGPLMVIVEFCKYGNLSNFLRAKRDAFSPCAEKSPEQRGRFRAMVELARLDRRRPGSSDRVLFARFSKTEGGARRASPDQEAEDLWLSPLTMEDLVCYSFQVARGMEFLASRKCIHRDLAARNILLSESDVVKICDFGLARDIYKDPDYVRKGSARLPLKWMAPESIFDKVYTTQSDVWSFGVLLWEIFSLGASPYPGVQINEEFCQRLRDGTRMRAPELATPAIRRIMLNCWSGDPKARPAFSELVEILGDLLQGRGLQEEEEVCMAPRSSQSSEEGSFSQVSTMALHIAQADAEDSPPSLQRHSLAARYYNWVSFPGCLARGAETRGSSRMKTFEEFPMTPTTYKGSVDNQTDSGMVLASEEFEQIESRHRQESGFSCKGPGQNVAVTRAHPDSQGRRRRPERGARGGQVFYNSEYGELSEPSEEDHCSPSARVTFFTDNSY
Chain of UniProt P16591 (whole entry, looked up): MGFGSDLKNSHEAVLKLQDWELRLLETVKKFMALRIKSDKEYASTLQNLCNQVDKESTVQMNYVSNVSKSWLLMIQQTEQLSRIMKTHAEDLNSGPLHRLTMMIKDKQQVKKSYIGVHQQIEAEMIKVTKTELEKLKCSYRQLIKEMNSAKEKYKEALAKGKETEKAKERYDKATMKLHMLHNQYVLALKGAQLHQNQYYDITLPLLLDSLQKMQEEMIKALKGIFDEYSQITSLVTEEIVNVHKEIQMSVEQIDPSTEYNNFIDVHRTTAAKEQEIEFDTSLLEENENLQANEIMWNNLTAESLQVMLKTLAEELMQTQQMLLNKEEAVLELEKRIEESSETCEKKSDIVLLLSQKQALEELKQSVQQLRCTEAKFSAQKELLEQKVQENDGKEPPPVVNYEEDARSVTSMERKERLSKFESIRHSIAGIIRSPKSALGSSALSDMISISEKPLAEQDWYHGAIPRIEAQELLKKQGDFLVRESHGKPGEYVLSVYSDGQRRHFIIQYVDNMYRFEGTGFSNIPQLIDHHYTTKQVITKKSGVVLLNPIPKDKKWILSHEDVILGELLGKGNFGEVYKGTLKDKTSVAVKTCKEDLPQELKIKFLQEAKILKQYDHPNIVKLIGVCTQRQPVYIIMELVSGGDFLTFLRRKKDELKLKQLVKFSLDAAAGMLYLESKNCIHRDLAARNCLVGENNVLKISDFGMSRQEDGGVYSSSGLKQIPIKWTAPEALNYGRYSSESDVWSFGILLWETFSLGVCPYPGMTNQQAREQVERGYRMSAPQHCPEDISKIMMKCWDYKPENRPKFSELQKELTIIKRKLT
Chain of UniProt Q5VT25 (whole entry, looked up): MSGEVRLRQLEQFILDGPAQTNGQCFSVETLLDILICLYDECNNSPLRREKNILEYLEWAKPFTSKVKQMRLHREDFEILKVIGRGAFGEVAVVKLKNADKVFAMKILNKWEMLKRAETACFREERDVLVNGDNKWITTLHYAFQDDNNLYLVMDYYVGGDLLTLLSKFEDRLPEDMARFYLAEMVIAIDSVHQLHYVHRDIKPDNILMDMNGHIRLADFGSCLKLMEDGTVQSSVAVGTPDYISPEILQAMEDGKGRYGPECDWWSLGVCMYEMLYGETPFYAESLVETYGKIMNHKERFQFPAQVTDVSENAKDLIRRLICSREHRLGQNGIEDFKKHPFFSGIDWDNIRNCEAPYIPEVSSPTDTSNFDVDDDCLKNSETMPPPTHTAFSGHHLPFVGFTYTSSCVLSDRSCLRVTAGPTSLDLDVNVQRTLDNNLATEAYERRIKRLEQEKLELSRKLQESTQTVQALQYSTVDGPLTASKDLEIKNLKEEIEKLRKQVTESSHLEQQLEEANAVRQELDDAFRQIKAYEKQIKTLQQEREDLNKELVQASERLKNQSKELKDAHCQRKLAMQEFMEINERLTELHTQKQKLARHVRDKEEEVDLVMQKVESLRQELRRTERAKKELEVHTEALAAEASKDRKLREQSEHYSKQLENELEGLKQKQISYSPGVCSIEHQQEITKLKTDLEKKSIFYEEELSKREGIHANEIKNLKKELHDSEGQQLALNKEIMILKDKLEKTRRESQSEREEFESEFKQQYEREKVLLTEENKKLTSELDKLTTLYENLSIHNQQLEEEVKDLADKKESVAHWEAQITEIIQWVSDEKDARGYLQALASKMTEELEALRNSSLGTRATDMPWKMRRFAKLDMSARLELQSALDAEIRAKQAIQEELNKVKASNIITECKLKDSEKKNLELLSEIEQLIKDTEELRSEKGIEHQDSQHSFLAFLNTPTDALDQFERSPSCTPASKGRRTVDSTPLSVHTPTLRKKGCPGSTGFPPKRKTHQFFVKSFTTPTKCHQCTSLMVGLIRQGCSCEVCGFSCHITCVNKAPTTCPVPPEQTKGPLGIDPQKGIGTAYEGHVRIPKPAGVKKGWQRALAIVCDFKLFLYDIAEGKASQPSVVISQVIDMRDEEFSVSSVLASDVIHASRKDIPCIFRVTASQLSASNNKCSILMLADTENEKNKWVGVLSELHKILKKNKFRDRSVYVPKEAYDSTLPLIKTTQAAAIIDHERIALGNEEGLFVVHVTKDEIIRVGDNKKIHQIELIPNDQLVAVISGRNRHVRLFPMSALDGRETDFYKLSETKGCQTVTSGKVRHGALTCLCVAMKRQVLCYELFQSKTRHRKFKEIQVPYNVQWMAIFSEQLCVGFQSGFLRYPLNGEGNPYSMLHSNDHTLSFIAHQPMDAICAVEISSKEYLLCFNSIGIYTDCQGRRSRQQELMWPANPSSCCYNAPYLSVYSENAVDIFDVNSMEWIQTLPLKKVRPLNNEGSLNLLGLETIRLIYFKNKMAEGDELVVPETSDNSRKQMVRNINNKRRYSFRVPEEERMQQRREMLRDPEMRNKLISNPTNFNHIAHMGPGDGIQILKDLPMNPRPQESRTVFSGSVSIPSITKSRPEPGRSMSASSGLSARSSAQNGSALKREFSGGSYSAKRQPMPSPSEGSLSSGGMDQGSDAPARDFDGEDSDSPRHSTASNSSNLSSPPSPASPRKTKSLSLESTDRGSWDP

Sample 1
SMILES: C=CC(=O)N1CCC[C@@H](n2nc(-c3ccc(Oc4ccccc4)cc3)c3c(N)ncnc32)C1
Mode: inhibitor
Tested at: 1 µM
The inhibition was 5% (MAPK15 (Homo sapiens, UniProt Q8TD08); enzyme activity).
It gave 29% for inhibition (Ribosomal protein S6 kinase alpha-2, kinase domain 1 (RPS6KA2, Homo sapiens, UniProt Q15349)).
It gave 2% for inhibition (Tyrosine-protein kinase JAK1, JH1 kinase domain (JAK1, Homo sapiens, UniProt P23458)).
For MUSK (Homo sapiens, UniProt O15146); enzyme activity: inhibition read 7%.
The inhibition was 13% (PRKD2 (Homo sapiens, UniProt Q9BZL6)).
EPHA8 (Homo sapiens, UniProt P29322) — inhibition: 30%.
FLT3 (Homo sapiens, UniProt P36888, D835H) — inhibition: 67%.
It gave 46% for inhibition (PRKCI (Homo sapiens, UniProt P41743); enzyme activity).
It gave 33% for inhibition (STK38 (Homo sapiens, UniProt Q15208); enzyme activity).

Sample 2
Structure (SMILES): Cc1ccc(NC(=O)c2ccc(CN3CCN(C)CC3)cc2)cc1Nc1nccc(-c2cccnc2)n1
Read-out: enzyme activity
Mode: inhibitor
Tested at: 0.5 µM
Baseline: control
The remaining activity was 94.1% (MARK3 (Homo sapiens, UniProt P27448)).
FYN (Homo sapiens, UniProt P06241) — remaining activity: 85.8%.
For PRKX (Homo sapiens, UniProt P51817): remaining activity read 103%.
For AKT1 (Homo sapiens, UniProt P31749): remaining activity read 93.1%.
Cyclin-dependent kinase 3, with cyclin E (CDK3, Homo sapiens, UniProt Q00526) — remaining activity: 97.5%.
It gave 80.1% for remaining activity (FGR (Homo sapiens, UniProt P09769)).
It gave 94.3% for remaining activity (FER (Homo sapiens, UniProt P16591)).
FLT4 (Homo sapiens, UniProt P35916) — remaining activity: 98.9%.
PASK (Homo sapiens, UniProt Q96RG2) — remaining activity: 98.9%.
The remaining activity was 90.1% (LIM domain kinase 1 (LIMK1, Homo sapiens, UniProt P53667)).
It gave 97% for remaining activity (HIPK1 (Homo sapiens, UniProt Q86Z02)).
STK25 (Homo sapiens, UniProt O00506) — remaining activity: 98.4%.
It gave 94.9% for remaining activity (MATK (Homo sapiens, UniProt P42679)).
For NLK (Homo sapiens, UniProt Q9UBE8): remaining activity read 104%.
It gave 94.7% for remaining activity (TAOK3 (Homo sapiens, UniProt Q9H2K8)).
For CDC42BPA (Homo sapiens, UniProt Q5VT25): remaining activity read 86.7%.
NEK11 (Homo sapiens, UniProt Q8NG66) — remaining activity: 110%.
For ITK (Homo sapiens, UniProt Q08881): remaining activity read 98.2%.
ALK (Homo sapiens, UniProt Q9UM73) — remaining activity: 95.1%.
It gave 109% for remaining activity (Insulin receptor (INSR, Homo sapiens, UniProt P06213)).
For PKN1 (Homo sapiens, UniProt Q16512): remaining activity read 98.9%.

Sample 3
SMILES: COc1ccc2c(c1)O[C@@H](c1ccc(OC)c(OC)c1)C[C@H]2NC(=O)C1(c2ccc3c(c2)OC(F)(F)O3)CC1
Technique: competition with immobilised ligand
Tested at: 1 µM
NEK3 (Homo sapiens, UniProt P51956); cell-free assay — remaining binding: 76%.
For LATS1 (Homo sapiens, UniProt O95835); cell-free assay: remaining binding read 92%.
NEK2 (Homo sapiens, UniProt P51955); cell-free assay — remaining binding: 97%.
It gave 77% for remaining binding (HIPK3 (Homo sapiens, UniProt Q9H422); cell-free assay).
For STK38 (Homo sapiens, UniProt Q15208); cell-free assay: remaining binding read 91%.
For RIPK4 (Homo sapiens, UniProt P57078); cell-free assay: remaining binding read 67%.
CSNK1A1L (Homo sapiens, UniProt Q8N752); cell-free assay — remaining binding: 100%.
CDK15 (Homo sapiens, UniProt Q96Q40); cell-free assay — remaining binding: 100%.
For ERN1 (Homo sapiens, UniProt O75460); cell-free assay: remaining binding read 100%.
For MAPK13 (Homo sapiens, UniProt O15264); cell-free assay: remaining binding read 97%.
For TEC (Homo sapiens, UniProt P42680); binding: remaining binding read 89%.
It gave 94% for remaining binding (CSNK2A1 (Homo sapiens, UniProt P68400); cell-free assay).
For MAP3K3 (Homo sapiens, UniProt Q99759); cell-free assay: remaining binding read 84%.
MAK (Homo sapiens, UniProt P20794); cell-free assay — remaining binding: 93%.

Sample 4
Species: mouse
Matrix: microsomes or S9
Tested at: 2 µM
Time: 0.5 h
For `COc1cc(NC(=O)N2CCC(Cn3cncn3)CC2)ncn1`, the remaining compound was > 100%.
`Cc1oc(=O)n(Cc2cc(C(N)=O)oc2C(C)(C)C)c1C` gave a remaining compound of 76.4%.
The remaining compound of `CCc1nnc(S(=O)(=O)C(C)C(=O)NCC2CCCCC2)[nH]1` (stereo not shown) is reported as > 100%.
`Clc1nc(N2CCN(c3ccccn3)CC2)c2nc[nH]c2n1` gave a remaining compound of 0.0656%.
`COc1cc2c(c(OC)c1OC)-c1c(cc(OC)c(OC)c1OC)C[C@](C)(O)[C@@H](C)C2` gave a remaining compound of 20.2%.
For `Cc1cc(F)c(S(N)(=O)=O)c(NCCCOC(C)C)c1`, the remaining compound was 0.38%.
For `O=C(Nc1ccc2c(c1)C(=O)N1CCC[C@H]1C(=O)N2)c1cc(-c2ccc3c(c2)CCO3)n[nH]1`, the remaining compound was 84.7%.
`COc1cc(CNC(C)(C)C)cc(Br)c1OCc1cccs1` gave a remaining compound of 3.23%.
`CC(c1ccc([S+](C)[O-])cc1)N(C)C(=O)C1CCC(c2ccccc2)CC1` (stereo not shown) gave a remaining compound of 26.8%.
For `O=C(Cn1c(COc2ccc(Br)cc2Cl)noc1=O)Nc1cccc(Br)c1`, the remaining compound was 10.5%.
With `COC(c1ccc(Cl)cc1)(c1ccc(Cl)cc1)C(Oc1nccc(C)n1)C(=O)O` (stereo not shown) the remaining compound was 84.7%.
With `CC(=O)c1c(NCc2ccc(Cl)cc2)n(C)c2ccccc2c1=O` the remaining compound was 10.7%.
For `COc1ccc(-n2ccc3cc(N4CCCCC4)ccc32)cc1Cl`, the remaining compound was 0.0659%.
For `Cc1ccn(CCNc2ncnc3c2CCN(c2cnccn2)CC3)n1`, the remaining compound was 0.508%.

For quick reference, copied from above (sample 4):
`Clc1nc(N2CCN(c3ccccn3)CC2)c2nc[nH]c2n1` gave a remaining compound of 0.0656%.
`COc1cc2c(c(OC)c1OC)-c1c(cc(OC)c(OC)c1OC)C[C@](C)(O)[C@@H](C)C2` gave a remaining compound of 20.2%.
For `Cc1cc(F)c(S(N)(=O)=O)c(NCCCOC(C)C)c1`, the remaining compound was 0.38%.
For `O=C(Nc1ccc2c(c1)C(=O)N1CCC[C@H]1C(=O)N2)c1cc(-c2ccc3c(c2)CCO3)n[nH]1`, the remaining compound was 84.7%.
`COc1cc(CNC(C)(C)C)cc(Br)c1OCc1cccs1` gave a remaining compound of 3.23%.
`CC(c1ccc([S+](C)[O-])cc1)N(C)C(=O)C1CCC(c2ccccc2)CC1` (stereo not shown) gave a remaining compound of 26.8%.
For `O=C(Cn1c(COc2ccc(Br)cc2Cl)noc1=O)Nc1cccc(Br)c1`, the remaining compound was 10.5%.
With `COC(c1ccc(Cl)cc1)(c1ccc(Cl)cc1)C(Oc1nccc(C)n1)C(=O)O` (stereo not shown) the remaining compound was 84.7%.
